Experimental data collected from several papers.
Each numbered part is a random draw from the data of one study; scales do not carry over between parts. Several values in a cell are separate wells, animals, samples, runs or records.
UniProt P9WI81, sequence (whole entry, looked up): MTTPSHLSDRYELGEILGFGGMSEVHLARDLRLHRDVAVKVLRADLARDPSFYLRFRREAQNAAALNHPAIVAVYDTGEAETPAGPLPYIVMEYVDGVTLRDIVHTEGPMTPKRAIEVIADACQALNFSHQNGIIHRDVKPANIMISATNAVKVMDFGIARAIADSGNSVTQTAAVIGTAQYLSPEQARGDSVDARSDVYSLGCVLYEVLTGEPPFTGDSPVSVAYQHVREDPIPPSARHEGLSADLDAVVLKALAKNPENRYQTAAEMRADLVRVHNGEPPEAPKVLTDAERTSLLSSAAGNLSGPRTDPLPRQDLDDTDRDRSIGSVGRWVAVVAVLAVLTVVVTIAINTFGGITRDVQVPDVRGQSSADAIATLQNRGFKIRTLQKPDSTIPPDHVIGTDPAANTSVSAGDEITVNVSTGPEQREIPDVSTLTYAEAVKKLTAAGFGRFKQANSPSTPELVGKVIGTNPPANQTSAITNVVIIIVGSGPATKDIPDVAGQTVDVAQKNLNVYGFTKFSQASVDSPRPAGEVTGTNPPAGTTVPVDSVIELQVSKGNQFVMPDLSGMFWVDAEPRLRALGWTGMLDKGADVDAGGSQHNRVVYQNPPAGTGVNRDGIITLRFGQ
UniProt P41143, sequence (whole entry, looked up): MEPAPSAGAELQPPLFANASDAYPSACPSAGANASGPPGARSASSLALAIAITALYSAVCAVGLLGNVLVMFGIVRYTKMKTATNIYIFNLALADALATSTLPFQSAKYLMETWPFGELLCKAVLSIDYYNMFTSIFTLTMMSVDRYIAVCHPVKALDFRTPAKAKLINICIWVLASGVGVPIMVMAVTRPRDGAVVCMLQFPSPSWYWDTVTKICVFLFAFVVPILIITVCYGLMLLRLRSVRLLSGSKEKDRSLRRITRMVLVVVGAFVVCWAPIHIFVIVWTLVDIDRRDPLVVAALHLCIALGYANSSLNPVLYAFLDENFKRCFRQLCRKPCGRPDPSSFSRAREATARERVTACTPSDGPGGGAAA
UniProt P31645, sequence (whole entry, looked up): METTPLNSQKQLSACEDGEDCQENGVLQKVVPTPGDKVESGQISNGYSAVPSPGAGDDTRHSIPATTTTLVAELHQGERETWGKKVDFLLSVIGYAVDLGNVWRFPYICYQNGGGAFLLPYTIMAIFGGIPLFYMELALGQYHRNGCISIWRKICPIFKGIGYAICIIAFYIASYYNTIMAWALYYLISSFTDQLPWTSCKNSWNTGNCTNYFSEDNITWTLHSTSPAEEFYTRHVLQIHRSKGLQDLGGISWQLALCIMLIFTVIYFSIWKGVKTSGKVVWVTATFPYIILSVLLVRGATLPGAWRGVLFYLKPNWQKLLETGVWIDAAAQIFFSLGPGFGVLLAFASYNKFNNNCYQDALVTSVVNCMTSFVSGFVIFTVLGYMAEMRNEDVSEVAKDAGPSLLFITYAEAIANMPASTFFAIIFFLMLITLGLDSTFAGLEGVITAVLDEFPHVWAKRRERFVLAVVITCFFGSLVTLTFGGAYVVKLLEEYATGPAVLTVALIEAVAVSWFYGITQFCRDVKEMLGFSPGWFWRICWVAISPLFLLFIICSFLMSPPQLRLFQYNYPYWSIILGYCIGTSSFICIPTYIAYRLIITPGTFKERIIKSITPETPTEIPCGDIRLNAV

Set 1
SMILES: O=C1CCC(N2Cc3c(ccc4c3OCC43CCN(Cc4ccccc4)CC3)C2=O)C(=O)N1 (stereo not shown)
Matrix: plasma
Endpoint: AUC(0-inf)
male ICR mice; intravenous, 1.0 mg/kg: 398 ng·h/mL and 453 ng·h/mL
male Sprague Dawley rats; oral, 3.0 mg/kg: 1050 ng·h/mL
male CD-1 mouse; intravenous, 1 mg/kg: 422 ng·h/mL
male Sprague-Dawley rat; oral, 3 mg/kg: 1170 ng·h/mL
mouse, ICR, male; oral, 3.0 mg/kg: 1650 ng·h/mL

Set 2
Cell line: HEK-293T/ACE2
Concentration: concentration not given
Time: 16 (unit not given)
Relative to: vehicle
Endpoint: viability
CC(=O)O[C@H]1C[C@@H]2CC[C@@H]3[C@H](CC[C@@]4(C)[C@H]3C[C@H]([N+]3(C)CCCCC3)[C@@H]4OC(C)=O)[C@@]2(C)C[C@@H]1[N+]1(C)CCCCC1: 105%
COc1cc2nc(N3CCN(C(=O)C4CCCO4)CC3)nc(N)c2cc1OC (stereo not shown): 107%
CC(c1cc2ccccc2s1)N(O)C(N)=O (stereo not shown): 101%
Cc1ccnc2c1NC(=O)c1cccnc1N2C1CC1: 99%
C[C@]12CCC(=O)C=C1CC[C@@H]1[C@@H]2[C@@H](O)C[C@@]2(C)[C@H]1CC[C@]2(O)C(=O)CO: 104%
CN1C[C@H](C(=O)N[C@]2(C)O[C@@]3(O)[C@@H]4CCCN4C(=O)[C@H](Cc4ccccc4)N3C2=O)C[C@@H]2c3cccc4[nH]cc(c34)C[C@H]21: 99%

Single results of other studies
CDPK1: Calcium-dependent protein kinase 1 (CDPK1, Plasmodium falciparum, UniProt P62344)
UniProt P62344, sequence (whole entry, looked up): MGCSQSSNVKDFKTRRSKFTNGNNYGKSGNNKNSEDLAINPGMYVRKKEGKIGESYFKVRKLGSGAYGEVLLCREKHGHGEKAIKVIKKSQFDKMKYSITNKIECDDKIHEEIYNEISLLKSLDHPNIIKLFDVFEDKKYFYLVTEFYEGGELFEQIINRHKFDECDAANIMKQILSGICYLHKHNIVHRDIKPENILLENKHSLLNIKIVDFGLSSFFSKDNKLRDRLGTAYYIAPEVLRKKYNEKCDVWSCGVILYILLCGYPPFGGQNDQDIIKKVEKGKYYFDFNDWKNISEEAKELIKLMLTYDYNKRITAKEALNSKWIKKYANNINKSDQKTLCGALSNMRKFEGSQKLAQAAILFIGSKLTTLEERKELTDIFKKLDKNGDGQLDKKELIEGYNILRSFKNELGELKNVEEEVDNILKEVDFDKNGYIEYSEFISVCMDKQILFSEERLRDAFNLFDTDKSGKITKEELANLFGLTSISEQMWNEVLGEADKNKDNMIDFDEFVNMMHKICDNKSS
COc1cc(-c2cn(C3CCc4c(F)cccc4N(CC(F)(F)F)C3=O)nn2)ccc1-n1cnc(C)c1 (stereo not shown)  remaining binding (CDPK1; cell-free assay, competition with immobilised ligand; 1 µM): 100%
C=CC(=O)N1CCC([C@@H]2CCNc3c(C(N)=O)c(-c4ccc(Oc5ccccc5)cc4)nn32)CC1  inhibition (pknB (Mycobacterium tuberculosis, UniProt P9WI81); enzyme activity, inhibitor; 1 µM): 0%
CO[C@@H](C)c1c(Nc2ccc([C@H](N(C)C(=O)C3CCS(=O)(=O)CC3)C(F)(F)F)cc2)cnc2cc(Cl)nn12  inhibition (OPRD1 (Homo sapiens, UniProt P41143); ligand displacement; 10 µM): -26.4%
CNCc1ccccc1-c1csc([C@@H](C)Nc2nc(C)nc3cc(OC)c(OC)cc23)c1  remaining binding (CDPK1; cell-free assay, competition with immobilised ligand; 1 µM): 100%
CNC(=N)NCCC[C@H](NC(=O)[C@H](CC(C)C)NC(=O)NNC(=O)[C@H](Cc1ccccc1)NC(=O)[C@H](CO)NC(=O)[C@H](CC(N)=O)NC(=O)[C@@H](Cc1ccncc1)NC(=O)[C@H](N)Cc1ccc(O)cc1)C(=O)N[C@@H](Cc1ccccc1)C(N)=O  inhibition (SLC6A4 (Homo sapiens, UniProt P31645); ligand displacement; 10 µM): 8.84%

Excerpt of the above (set 1):
male Sprague Dawley rats; oral, 3.0 mg/kg: 1050 ng·h/mL
male CD-1 mouse; intravenous, 1 mg/kg: 422 ng·h/mL
